Assay results pooled from the literature.
Numbered parts are unrelated; each lists some results of a single study.

Study 1 — technique: universal PBM; molecule type: double-stranded DNA, one strand shown; matrix: in vitro; concentration: 600 nM; reading: higher = stronger binding
Target: Sal-like protein 4, full length isoform A (SALL4, Homo sapiens, UniProt Q9UJQ4, residues 1-1053)
UniProt Q9UJQ4, sequence (whole entry, looked up): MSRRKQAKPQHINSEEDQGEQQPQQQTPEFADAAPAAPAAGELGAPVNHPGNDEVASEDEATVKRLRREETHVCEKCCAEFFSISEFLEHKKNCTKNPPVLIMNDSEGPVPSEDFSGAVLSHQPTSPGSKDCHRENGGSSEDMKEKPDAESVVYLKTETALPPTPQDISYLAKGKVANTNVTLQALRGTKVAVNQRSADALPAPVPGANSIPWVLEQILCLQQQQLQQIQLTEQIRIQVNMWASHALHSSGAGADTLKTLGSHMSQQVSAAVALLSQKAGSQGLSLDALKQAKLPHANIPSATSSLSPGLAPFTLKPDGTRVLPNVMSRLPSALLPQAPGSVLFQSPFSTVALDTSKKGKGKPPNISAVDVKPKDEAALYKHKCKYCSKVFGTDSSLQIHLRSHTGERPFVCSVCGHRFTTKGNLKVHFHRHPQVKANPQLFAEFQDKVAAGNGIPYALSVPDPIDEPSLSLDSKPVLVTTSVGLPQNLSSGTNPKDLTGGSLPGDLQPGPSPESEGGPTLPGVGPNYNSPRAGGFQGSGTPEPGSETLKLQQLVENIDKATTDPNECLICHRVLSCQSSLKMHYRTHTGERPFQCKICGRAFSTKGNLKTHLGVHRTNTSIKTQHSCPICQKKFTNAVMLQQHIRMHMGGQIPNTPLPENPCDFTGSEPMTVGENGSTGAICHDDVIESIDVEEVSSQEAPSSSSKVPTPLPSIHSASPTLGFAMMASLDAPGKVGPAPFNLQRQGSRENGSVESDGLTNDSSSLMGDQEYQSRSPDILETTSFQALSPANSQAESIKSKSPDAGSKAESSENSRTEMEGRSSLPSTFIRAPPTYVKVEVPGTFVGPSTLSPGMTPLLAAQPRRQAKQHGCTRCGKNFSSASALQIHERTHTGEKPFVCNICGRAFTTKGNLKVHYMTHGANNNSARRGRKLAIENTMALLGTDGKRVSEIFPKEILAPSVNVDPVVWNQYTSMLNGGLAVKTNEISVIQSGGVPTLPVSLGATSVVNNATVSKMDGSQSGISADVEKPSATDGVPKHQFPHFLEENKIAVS
Setting: 8-mer, flanks averaged, mean of replicates
| Oligonucleotide | E-score |
| --- | --- |
| CATCAAAG | 0.00799 |
| CCCGGACA | -0.117 |
| CCGGATAC | -0.263 |
| CCTTTTAA | 0.0828 |
| ACGAGGCG | -0.195 |
| CACATTCA | 0.131 |
| AGCTGTTG | 0.0733 |
| CACATGAG | -0.0546 |
| AGATTTGC | 0.0654 |
| GTAACGAA | 0.141 |
| GCTACAGA | -0.0202 |
| AGCTTATG | 0.23 |
| CATGGGCG | -0.361 |
| GCTTATGA | 0.239 |
| CGTAAACA | 0.0916 |
| GCGAAGGA | -0.12 |
| GTAGAATA | 0.295 |
| GAGGGGCA | -0.214 |
| ACAGGTCA | -0.0463 |
| TCTTCCAA | 0.15 |
| CAGATATC | 0.146 |

Study 2 — technique: RNA Bind-n-Seq; molecule type: RNA; matrix: in vitro; concentration: not given; reference: input RNA pool; reading: higher = stronger binding
Target: RING finger protein unkempt homolog, zinc fingers 1-6, GST-SBP tag (UNK, Homo sapiens, UniProt Q9C0B0, residues 30-357)
UniProt Q9C0B0, sequence (30-357, looked up): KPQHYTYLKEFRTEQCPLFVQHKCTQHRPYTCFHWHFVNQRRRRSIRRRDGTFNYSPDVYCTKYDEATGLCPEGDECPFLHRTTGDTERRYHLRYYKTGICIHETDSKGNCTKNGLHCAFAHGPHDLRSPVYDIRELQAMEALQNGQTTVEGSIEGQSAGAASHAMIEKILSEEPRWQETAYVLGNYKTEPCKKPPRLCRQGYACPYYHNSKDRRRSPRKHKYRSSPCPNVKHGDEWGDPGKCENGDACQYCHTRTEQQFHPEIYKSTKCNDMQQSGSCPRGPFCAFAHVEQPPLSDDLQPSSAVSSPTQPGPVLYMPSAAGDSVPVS
Setting: RNA with constant flanks, human and mouse sites, ends assumed
All sequences stand within: GGGAGUUCUACAGUCCGACGAUC … CAACAGAGGAUUGAGCAUCA
| Oligonucleotide | bound/input enrichment |
| --- | --- |
| UGUAAACUCAUGUACAGUUUUUUUGGGGGGGAGGCAAGGGGAGGGUUAGCAACUUCAAAUAGAAUCAUUUGUUGUAUUCCUCAAAUGGUAAACAGUCACCACUCAGCUAGAGACUGUCGU | 15.5 ratio |
| UAUUUCUUAUACUGUACAUGGUACAUAAAGUGCUUUCAAGAGGCUAAAACAAAACUUUUCUAGCAAAUAAUUUAAGUUAAAUGUAAAAUAUCCUAUAAAACCUAGAAUUGGUCAAAAGCA | 2.86 ratio |
| GCUCCACCUGCCCCAGCUCUGCCCGGUGUGGAAGAAGCAAGUGUCCUAAGCACCUAACUCUAGUUUUGUUACAAGUAUAACUUAGGAGAAAAAAUUGGUAGAAAUAAUACAGUAUGUUGC | 5.01 ratio |
| ACAGGGAAUGGGCGGCGGCUCCACCUGGGGAUUCCUGAGGCCGUGUUUGUGGAAGAUGUAGAUUCCUUCAUGAAACAGCCUGGGAAUGAGACUGCAGAUACAGUAUUAAAGAAGCUGGAU | 0.278 ratio |
| AAUCUUAAUUUUAAAGUGAAAGAGGAGCCUAAGGAAGGGGAGUCCCUAAGCACGACUUUGCCUCGGUCCAGCUAUGUGUUCAGCCCGGAAUCUGAAGUGUCAGCCCCAGGCGUCUCUGAG | 0.121 ratio |
| UUAACACCGUUGAAGAACUUGGUGAAGAACAAGAUAGAGACUCAUCUUUUUGCCUUUGAGAUUUACUUUAGGAAAGAAAAGUUUCUUUUGAUGCUACAAUCAGUAAAGAGGGCAUUUGCU | 0.295 ratio |
| CAAGAUCACCUGUUGCCUGAAGCAGAAGAAAUCACUAUGAUCAGUAUUCAACUUGCUGCUAGGUUCCUCUUUACUACAGGAUUUCACACAAAGAAAGUAGUCCGUGGCUCUGCCAGUGAU | 0.205 ratio |
| UUCUAAAGGGCUCAAAACAAGGCACAGGCCAGCUGACUCGUGACUUGGUGUCUGUAACUGCUUAGUGGGUGCUCUGAUUUGGUGCGUGUUAUGAAGGGAGGGGGUCCCUGUACCCCUAUC | 0.314 ratio |
| AGGACUUCAUUCCUCCAUGUUUUCUUCCCUUAUCUUACUGUCAUUGUCCUAAAACCUUAUUUUAGAAAAUUGAUCAAGUAACAUGUUGCAUGUGGCUUACUCUGGAUAUAUCUAAGCCCU | 0.501 ratio |
| AAUGAACAUAAUGCCAAAAUAAUUAAAUAUAUAAGAACUAAGACAAAGCCCCAUUUGUUUUAUAUUCCUGGAAGAAUGUGUCCAGCUACCCAAAAACUAAUAGAAGAGUCACAGAGAAAA | 4.74 ratio |
| AUAUAUAACAUGUCUUCUUUCAGAAUGGGAAUAUAUGUGUGCCUCCCAACAUUUACUGUUAAAGUGUGUUAUCUUUAUAUGUCAAACUGGUUGAACACUGUAAUGAGAAUAAACUGCACA | 0.165 ratio |

Study 3 — technique: protein binding microarray; molecule type: double-stranded DNA, one strand shown; matrix: in vitro; concentration: not given; reference: not given; reading: higher = stronger binding
Target: Histone acetyltransferase KAT6A, winged helix 2, GST fusion (KAT6A, Homo sapiens, UniProt Q92794, residues 85-181)
Setting: 8-mer, flanks averaged, mean of 2 arrays, mostly near background
Construct (chain): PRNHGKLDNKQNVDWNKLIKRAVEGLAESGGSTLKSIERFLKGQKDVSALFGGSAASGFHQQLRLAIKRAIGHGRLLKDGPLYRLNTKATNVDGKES
| Oligonucleotide | E-score |
| --- | --- |
| TCTTGACA | -0.0402 |
| CACAAGTA | -0.302 |
| AATTAAGT | 0.128 |
| GTCTGCTA | 0.115 |
| ACTCCACA | -0.00798 |
| AAACGTTT | -0.182 |
| AGCGGCCC | -0.0181 |
| CTAGAATC | -0.038 |
| CATAAAAA | 0.131 |
| GATTCGTA | 0.175 |
| TGATGAAA | -0.0272 |
| AGCCACAT | -0.0418 |
| GGCTTAGA | 0.0217 |
| AACGAACT | 0.00417 |
| CAGAGCAC | 0.119 |
| CCTCGAAC | -0.0362 |
| ACGGACGA | 0.0845 |
| ACAGTGCC | -0.0207 |
| CAAGCGCC | 0.068 |
| AGGTTACT | -0.00628 |
| ATCCAGCA | 0.0117 |
| TAGTTACA | -0.0764 |
| ACTATCGG | -0.0339 |
| ACTTCTAG | -0.0964 |
| CATCTTAG | 0.0194 |

Study 4 — technique: protein-binding microarray; molecule type: double-stranded DNA, one strand shown; matrix: in vitro; concentration: 250 nM; setting: 60-bp whole probe; together with: salmon DNA 0.4 mg/ml; reference: random background probes; reading: higher = stronger binding; all sequences stand within: GCCTAGCAC … GTCTTGATTCGCTTGACGCTGCTG
Target: Interferon regulatory factor 5, full length, phosphomimetic (IRF5, Homo sapiens, UniProt Q13568-2, residues 1-514, K96S/S451D/S453D/S456D/S462D)
| Oligonucleotide | log fluorescence [z-score] |
| --- | --- |
| TTAGATTTCCTTTCCCTTTAGTGCTAG | 1.9 |
| GTTCTACCTCTGCCTTTTGTGTGCTAG | 0.227 |
| GACGGAGTGCTACTGCTGACGTGCTAG | -0.458 |
| GCCGGTTTCCTTATCCTGACGTGCTAG | 0.759 |
| TCAGTTTTCATTTTCTGACTGTGCTAG | 3.1 |
| TTAGGACCGGACTATCGGTTAGTGCTA | 6.17 |
| GACAGTATCGGTATCGGGACGTGCTAG | 8.59 |
| CTAGATTTCAGTCTCGATTAGTGCTAG | 2.41 |
| GACGGTATCGACTCTGGGGACGTGCTA | 1.82 |
| AGCACTCTTCTTTTTTTTCTGTGCTAG | 0.943 |
| TTAGGTCTCGGACTGGGGTAGTGCTAG | -0.356 |
| GACGGTTTCGACTATTGGGACGTGCTA | 5.81 |
| TCAATATTATATCTGTGACTGTGCTAG | 0.947 |
| ACCTATGTGTACCACTAGACGTGCTAG | -0.417 |
| TTAGATATCAGTATCTATTAGTGCTAG | 2.39 |
| TTAGGTTTCCTACCGCTTTAGTGCTAG | 0.377 |

Study 5 — technique: RNA Bind-n-Seq; molecule type: RNA; matrix: in vitro; concentration: 1 µM; setting: whole 134-nt RNA, ends assumed; together with: 150 mM KCl; reference: input library; reading: higher = stronger binding
Target: Ras GTPase-activating protein-binding protein 1, C-terminal RGG region (G3BP1, Homo sapiens, UniProt Q13283)
UniProt Q13283, sequence (whole entry, looked up): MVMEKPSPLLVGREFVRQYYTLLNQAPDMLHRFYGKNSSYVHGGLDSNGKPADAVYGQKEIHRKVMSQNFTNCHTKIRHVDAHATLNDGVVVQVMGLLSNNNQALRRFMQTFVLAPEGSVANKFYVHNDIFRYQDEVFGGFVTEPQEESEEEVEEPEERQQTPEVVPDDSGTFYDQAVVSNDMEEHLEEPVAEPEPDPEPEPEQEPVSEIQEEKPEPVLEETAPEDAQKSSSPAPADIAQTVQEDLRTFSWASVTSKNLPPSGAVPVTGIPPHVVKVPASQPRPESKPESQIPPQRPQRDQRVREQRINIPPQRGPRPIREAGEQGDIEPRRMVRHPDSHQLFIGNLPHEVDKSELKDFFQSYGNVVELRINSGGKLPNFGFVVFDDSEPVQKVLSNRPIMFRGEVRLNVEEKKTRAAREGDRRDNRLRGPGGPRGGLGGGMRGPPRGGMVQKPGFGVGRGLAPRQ
All sequences stand within: GGGAGUUCUACAGUCCGACGAUC … UGGAAUUCUCGGGUGUCAAGG
| Oligonucleotide | log2 enrichment |
| --- | --- |
| UCAAGUCCUGUGCUACACAUCGUAUGUACCGAAUCGGGUUUUUGGGAGGGUGGGAAAGUAUUAUGUUACGCCGUUCGGAUCUGCACUUCC | 1.24 |
| CACAGACAACACGCACCCACACAGACACAGAGGGAAGGGGUUGGGAUGGGGACAAAAUGCACAGCAGGGCGGGGUAGGACCCCAGCCCCU | -0.0367 |
| GCAGGAAGUAAAAACAAAUGGAAAUGCUUCGGAUAGUGGCAGGGGUGGGGGUUGCUAAGGAAAGGGUGGGAUGGGAGUGGGUAAAGAGCU | 1.67 |
| CACAGACAACACGCACCCACACAGACACAGAGGGAAGGGGUUGGGCUGGGGACAGGGUGCACAGCAGGGCGGGGUAGGACCCCAGCCCCU | -0.318 |
| ACCAUGCAGGUGGGCAUCUUUGGGAAGUGGGGCAAAGGGGGGAUAGGGAGGGGGGUAACACUUUGGGAACAGGUGGUCCCAGGUCGUUUC | -0.868 |
| CAAGUCCUGUGCUACACAUCGUAUGUACCGAAUCGGAAAAAGGAAAGGAAAAAGGAAAGUAUUAUGUUACGCCGUUCGGAUCUGCACUUC | -1.86 |
| UGGAGGAGCCAUAGAAUAUUAAGGAUGAAUUCAGGAAGGCCUGAGACCAUGGAAAACUUGCCUGCUCUCUACACUAUUUUCCAAGGAGAG | -1.09 |
| GCAGGAAGUUAAAACAAAUGGAAAUGCUUCGGAUAGUGGCAGGGGUGGGGGUUGCUAAGGAAAGGGUGGGAUGGGAGUGGGUAAAGAGUU | 1.75 |
| UCAAGUCCUGUGCUACACAUCGUAUGUACCGAAUCGGAAAAAAAGGUUUGGUGGAAAGUAUUAUGUUACGCCGUUCGGAUCUGCACUUCC | -1.34 |
| UGGCCCUGGUGUCAUGCGGGGAGGAAGAGGUGGCCUCAUGGAUCGUGGUGGUCCCGGUGGAAUGUUCAGAGGUGGCCGUGGUGGAGACAG | 2.01 |
| UCCUCAAGUCCUGUGCUACACAUCGUAUGUACCGAAUCGGUUUGGAGGAGGAAAGUAUUAUGUUACGCCGUUCGGAUCUGCACUUCCAGC | -1.29 |
| UGUGCUACACAUCGUAUGUACCGAAUCGGGAAAAAAAGGGGAAAAAAAGGGAAAAAAAGGGGAAAGUAUUAUGUUACGCCGUUCGGAUCU | -0.521 |
| AGUCCUGUGCUACACAUCGUAUGUACCGAAUCGGGGUGGGGAGGGGAAAAAAAGGGGAAAGUAUUAUGUUACGCCGUUCGGAUCUGCACU | 1.55 |
| AGUCCUGUGCUACACAUCGUAUGUACCGAAUCGGAAAAAGGAAAAAGGGAAAAAGGGAAAGUAUUAUGUUACGCCGUUCGGAUCUGCACU | -1.84 |

Study 6 — technique: aptamer microarray, sandwich; molecule type: DNA with 2'F-ANA; matrix: in vitro; concentration: 200 nM; together with: Cy3 exosite-II aptamer, 400 nM; reading: higher = stronger binding; oligonucleotide: GGTTGGTGTGGTTGG
Target: Prothrombin, mature alpha-thrombin (F2, Homo sapiens, UniProt P00734)
Setting: whole 15-mer aptamer, many near background
| Modification | mean fluorescence intensity [a.u.] |
| --- | --- |
| 2'F-ANA at 1 2 4 5 7 8 9 14 | 47.8 |
| 2'F-ANA at 1 2 5 7 9 11 13 15 | 75.5 |
| 2'F-ANA at 1 2 4 10 11 14 | 44.6 |
| 2'F-ANA at 1 2 4 6 7 8 9 10 11 12 13 | 53.3 |
| 2'F-ANA at 2 3 7 9 11 15 | 737 |
| 2'F-ANA at 1 6 8 12 14 | 76.1 |
| 2'F-ANA at 1 2 4 7 8 10 11 12 13 | 54.6 |
| 2'F-ANA at 1 4 6 7 8 10 11 12 13 15 | 57.5 |
| 2'F-ANA at 2 3 4 5 7 8 9 11 15 | 129 |
| 2'F-ANA at 1 4 6 11 12 13 15 | 146 |
| 2'F-ANA at 2 3 7 10 11 12 13 15 | 458 |
| 2'F-ANA at 3 5 9 10 11 12 13 | 62.1 |
| 2'F-ANA at 3 5 7 8 11 13 15 | 239 |
| 2'F-ANA at 4 5 8 9 10 11 | 44.2 |
| 2'F-ANA at 2 4 5 6 7 10 11 12 14 15 | 47.7 |
| 2'F-ANA at 2 6 7 11 15 | 274 |
